Assay results from different studies.
Parts stem from different laboratories: compare values within a part only. Values joined by “and” are separate records of one study, mostly repeats; a detail may differ. Positions count from the first letter of the parent shown.
Chain of UniProt P27361 (whole entry, looked up): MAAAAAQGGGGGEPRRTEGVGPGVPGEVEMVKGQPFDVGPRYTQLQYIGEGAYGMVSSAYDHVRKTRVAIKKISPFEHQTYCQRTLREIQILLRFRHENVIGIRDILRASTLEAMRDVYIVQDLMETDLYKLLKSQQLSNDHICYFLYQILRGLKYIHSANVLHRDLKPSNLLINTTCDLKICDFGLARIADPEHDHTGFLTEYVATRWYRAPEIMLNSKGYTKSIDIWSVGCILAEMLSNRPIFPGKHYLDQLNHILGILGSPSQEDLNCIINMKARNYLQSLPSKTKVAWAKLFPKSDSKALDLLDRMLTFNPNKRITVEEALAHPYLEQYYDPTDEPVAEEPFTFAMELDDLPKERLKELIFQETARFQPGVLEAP
Chain of UniProt Q15349 (whole entry, looked up): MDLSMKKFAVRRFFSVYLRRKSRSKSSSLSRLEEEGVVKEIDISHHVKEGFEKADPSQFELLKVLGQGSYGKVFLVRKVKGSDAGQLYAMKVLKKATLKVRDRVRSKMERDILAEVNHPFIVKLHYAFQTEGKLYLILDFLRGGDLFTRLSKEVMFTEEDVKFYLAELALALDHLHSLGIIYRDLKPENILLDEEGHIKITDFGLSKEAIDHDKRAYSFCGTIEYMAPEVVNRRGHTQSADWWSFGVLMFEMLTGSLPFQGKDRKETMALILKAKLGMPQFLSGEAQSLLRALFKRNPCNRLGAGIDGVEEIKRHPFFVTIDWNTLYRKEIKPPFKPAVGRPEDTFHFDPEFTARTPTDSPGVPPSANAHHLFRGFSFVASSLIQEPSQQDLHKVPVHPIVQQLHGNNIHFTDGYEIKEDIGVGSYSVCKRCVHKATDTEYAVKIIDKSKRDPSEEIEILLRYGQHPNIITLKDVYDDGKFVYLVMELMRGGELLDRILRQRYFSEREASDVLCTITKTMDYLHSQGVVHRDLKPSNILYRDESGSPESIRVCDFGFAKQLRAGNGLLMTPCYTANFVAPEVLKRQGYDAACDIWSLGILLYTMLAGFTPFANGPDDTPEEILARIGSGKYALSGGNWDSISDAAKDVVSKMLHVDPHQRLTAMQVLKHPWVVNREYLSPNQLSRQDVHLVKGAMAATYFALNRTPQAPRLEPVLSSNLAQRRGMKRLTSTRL
Chain of UniProt P06239 (whole entry, looked up): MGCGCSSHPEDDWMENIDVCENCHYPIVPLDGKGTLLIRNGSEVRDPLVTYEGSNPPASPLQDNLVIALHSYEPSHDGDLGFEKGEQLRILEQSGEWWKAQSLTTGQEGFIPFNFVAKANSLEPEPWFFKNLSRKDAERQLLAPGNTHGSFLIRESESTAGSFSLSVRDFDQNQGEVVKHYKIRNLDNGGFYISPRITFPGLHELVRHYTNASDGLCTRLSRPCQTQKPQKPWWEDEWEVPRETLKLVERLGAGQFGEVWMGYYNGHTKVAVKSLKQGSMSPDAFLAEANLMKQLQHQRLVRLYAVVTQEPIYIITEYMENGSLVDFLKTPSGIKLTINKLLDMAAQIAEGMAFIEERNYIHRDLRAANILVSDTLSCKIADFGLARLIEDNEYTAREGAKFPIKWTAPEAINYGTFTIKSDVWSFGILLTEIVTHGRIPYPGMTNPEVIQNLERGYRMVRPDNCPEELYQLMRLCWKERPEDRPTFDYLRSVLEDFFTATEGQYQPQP
Chain of UniProt Q04912 (whole entry, looked up): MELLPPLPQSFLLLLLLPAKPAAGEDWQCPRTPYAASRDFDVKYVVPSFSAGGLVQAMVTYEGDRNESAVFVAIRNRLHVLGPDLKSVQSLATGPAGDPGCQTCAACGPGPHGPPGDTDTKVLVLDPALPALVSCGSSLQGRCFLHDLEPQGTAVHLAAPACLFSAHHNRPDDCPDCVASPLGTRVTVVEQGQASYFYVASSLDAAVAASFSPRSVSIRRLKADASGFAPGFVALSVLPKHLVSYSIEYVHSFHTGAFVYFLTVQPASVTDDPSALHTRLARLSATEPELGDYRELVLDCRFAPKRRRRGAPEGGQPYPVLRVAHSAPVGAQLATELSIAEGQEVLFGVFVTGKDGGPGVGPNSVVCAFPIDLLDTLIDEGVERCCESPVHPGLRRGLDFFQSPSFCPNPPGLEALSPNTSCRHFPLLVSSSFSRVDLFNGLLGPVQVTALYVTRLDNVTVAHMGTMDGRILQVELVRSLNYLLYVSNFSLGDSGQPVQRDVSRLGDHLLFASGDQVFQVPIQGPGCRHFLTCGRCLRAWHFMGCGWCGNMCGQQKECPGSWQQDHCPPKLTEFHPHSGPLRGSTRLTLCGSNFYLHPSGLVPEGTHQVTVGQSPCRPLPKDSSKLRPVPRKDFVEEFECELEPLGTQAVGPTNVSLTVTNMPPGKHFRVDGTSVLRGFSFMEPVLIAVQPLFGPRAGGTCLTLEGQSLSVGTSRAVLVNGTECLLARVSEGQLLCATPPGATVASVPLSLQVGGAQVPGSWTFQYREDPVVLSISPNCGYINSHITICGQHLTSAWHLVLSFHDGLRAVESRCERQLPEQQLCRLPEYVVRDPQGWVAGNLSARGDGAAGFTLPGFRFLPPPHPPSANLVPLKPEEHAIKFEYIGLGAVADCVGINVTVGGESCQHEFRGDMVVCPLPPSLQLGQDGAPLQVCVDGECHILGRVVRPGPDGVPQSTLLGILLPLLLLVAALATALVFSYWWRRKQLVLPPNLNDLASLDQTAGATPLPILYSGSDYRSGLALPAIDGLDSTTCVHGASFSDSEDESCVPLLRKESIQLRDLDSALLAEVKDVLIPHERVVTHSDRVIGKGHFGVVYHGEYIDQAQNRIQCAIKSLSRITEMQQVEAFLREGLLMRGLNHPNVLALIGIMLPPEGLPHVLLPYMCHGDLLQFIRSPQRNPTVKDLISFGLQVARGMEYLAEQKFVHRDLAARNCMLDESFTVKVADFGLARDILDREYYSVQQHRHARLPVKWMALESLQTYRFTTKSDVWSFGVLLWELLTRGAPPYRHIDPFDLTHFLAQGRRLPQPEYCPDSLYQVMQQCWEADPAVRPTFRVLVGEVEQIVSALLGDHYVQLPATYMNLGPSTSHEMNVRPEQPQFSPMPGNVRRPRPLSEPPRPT
Chain of UniProt Q8WTQ7 (whole entry, looked up): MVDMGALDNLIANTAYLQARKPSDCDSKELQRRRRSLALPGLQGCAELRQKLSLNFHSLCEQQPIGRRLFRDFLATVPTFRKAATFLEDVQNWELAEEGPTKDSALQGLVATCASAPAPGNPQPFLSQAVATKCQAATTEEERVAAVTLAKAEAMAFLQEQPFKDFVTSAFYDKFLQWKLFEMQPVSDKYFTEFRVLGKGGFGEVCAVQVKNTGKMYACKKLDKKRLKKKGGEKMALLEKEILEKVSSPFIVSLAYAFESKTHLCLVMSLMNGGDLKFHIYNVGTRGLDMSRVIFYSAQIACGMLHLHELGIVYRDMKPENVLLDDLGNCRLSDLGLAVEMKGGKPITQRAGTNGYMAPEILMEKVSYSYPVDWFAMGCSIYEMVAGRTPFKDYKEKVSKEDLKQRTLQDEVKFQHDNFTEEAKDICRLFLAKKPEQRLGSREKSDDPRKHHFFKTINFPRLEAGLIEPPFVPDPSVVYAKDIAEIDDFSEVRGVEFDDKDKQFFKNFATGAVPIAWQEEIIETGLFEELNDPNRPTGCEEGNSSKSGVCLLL
Chain of UniProt P30291 (whole entry, looked up): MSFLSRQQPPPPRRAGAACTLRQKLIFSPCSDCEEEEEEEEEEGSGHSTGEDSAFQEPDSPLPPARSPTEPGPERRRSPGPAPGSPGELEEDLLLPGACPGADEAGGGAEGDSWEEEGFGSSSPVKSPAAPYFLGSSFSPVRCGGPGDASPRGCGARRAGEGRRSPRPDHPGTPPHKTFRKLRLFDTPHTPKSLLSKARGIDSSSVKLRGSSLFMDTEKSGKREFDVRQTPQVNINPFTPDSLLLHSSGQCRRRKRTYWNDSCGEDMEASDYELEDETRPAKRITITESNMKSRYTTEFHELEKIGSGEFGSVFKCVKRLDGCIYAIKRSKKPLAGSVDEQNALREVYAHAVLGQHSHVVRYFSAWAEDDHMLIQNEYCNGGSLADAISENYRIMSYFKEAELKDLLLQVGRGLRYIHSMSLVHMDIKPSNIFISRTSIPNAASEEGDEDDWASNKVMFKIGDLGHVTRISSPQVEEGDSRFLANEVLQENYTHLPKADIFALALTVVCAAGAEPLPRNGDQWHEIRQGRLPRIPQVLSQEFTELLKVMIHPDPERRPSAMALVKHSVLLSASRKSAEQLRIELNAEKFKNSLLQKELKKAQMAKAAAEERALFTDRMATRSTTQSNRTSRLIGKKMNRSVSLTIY
Chain of UniProt P49841 (whole entry, looked up): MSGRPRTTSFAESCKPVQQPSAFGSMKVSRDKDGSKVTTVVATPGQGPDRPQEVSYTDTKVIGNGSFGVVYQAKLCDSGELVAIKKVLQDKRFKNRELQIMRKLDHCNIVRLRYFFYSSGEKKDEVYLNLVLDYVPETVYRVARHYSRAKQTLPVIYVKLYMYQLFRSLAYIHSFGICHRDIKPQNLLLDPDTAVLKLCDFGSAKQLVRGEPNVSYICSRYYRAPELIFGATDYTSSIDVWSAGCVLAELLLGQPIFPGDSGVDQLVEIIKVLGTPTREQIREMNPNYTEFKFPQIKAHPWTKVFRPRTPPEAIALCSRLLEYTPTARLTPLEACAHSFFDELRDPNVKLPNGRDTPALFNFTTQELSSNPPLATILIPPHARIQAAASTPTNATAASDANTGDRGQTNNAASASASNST

Study 1
Cell line: sample B colorectal tumour organoid
Tested at: 1 µM
Baseline: DMSO
CCC(=NO)C(C)=Cc1ccc(F)c(C)c1 has a viability of 88.8%.
For CN1CCN(Cc2cc(NC(=O)c3ccc4c(c3)CN(c3ccccc3)CC4)cc(C(F)(F)F)c2)CC1, the viability was 95.6% and 86.7%.
With CCOc1cn(-c2ccc(F)cc2C)nc1C(=O)Nc1ccc(Oc2ccnc3cc(OC)c(OC)cc23)c(F)c1 the viability was 104% and 103%.
Cn1cc(-c2ccc3occ(-c4ccccc4-c4ccccc4)c3n2)cn1 has a viability of 120%.
CCC(=N\O)/C(C)=C/c1ccc(F)cc1 gave a viability of 117%.
COc1ccc2c(O[C@@H]3C[C@H]4C(=O)N[C@]5(C(=O)O)CC5/C=C\CCCCC[C@H](NC(=O)OC5CCCC5)C(=O)N4C3)cc(-c3csc(NC(=O)C(C)C)n3)nc2c1C (stereo partly drawn) gave a viability of 104%.

Study 2
Target: CCNE2, cyclin fold, Cln2 fusion (human)
Technique: yeast growth competition, sequencing
Sample: yeast
Notes: weak parent motif
Baseline: not given
Reading: higher = stronger binding
Starting sequence: PKMYT1 docking peptide (human); SFEPRNLLSLFED; partner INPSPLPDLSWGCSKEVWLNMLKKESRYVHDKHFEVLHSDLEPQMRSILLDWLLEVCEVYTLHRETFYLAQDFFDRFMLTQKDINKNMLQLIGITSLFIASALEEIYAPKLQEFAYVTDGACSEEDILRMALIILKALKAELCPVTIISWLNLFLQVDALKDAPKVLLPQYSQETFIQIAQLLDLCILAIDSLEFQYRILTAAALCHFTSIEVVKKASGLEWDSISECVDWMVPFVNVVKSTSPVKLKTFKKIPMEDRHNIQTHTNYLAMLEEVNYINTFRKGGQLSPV
`SFEPRNTLSLFED [L7T]` — result for “normalised enrichment score”: 0.125.
`SMEPRNLLSLFED [F2M]` — result for “normalised enrichment score”: 0.126.
For `SPEPRNLLSLFED [F2P]`, “normalised enrichment score” read -0.197.
`SFEPRNLSSLFED [L8S]` — result for “normalised enrichment score”: -0.386.
For `SFEPRNLLSEFED [L10E]`, “normalised enrichment score” read 0.339.
For `SFEPRNLLSLFYD [E12Y]`, “normalised enrichment score” read 0.357.
For `SFEFRNLLSLFED [P4F]`, “normalised enrichment score” read -0.409.
`SFEPRNLLSLFEG [D13G]` — result for “normalised enrichment score”: 0.235.

Study 3
Target: Eukaryotic initiation factor 4A-I (EIF4A1, Homo sapiens, UniProt P60842, residues 1-406, full length assumed)
Chain of UniProt P60842 (whole entry, looked up): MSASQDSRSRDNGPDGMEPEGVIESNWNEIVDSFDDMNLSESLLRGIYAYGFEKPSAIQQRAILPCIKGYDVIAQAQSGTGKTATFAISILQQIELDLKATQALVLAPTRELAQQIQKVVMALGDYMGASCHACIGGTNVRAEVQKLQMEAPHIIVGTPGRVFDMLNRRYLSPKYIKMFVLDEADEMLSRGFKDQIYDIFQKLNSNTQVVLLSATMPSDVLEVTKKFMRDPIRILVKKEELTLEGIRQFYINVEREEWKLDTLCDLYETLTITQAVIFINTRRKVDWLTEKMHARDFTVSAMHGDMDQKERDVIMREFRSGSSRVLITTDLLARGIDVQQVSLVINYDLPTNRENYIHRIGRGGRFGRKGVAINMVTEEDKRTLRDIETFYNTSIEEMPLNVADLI
Technique: RNA Bind-n-Seq
Molecule type: RNA
Sample: in vitro
Tested at: 90 pmol
Notes: 4-mer, random 30-nt RNA, single round
With: 3 µM DMDA-PatA, 2 mM ADP, 2 mM phosphate
Baseline: input library
Reading: higher = stronger binding
With `CGUU` the 4-mer enrichment was 1.14 fold.
The 4-mer enrichment of `UUAA` is reported as 1.07 fold.
`ACAU` gave a 4-mer enrichment of 0.734 fold.
For `AUGC`, the 4-mer enrichment was 0.934 fold.
With `GAAC` the 4-mer enrichment was 0.741 fold.
With `CUCU` the 4-mer enrichment was 0.546 fold.
With `CCAA` the 4-mer enrichment was 0.695 fold.
With `CGCG` the 4-mer enrichment was 1.35 fold.

Study 4
SMILES: Cc1ccc(NC2=CC(=O)c3sc(C)nc3C2=O)cc1
Observed: enzyme activity
Action: inhibitor
Tested at: 0.5 µM
Baseline: control
It gave 98.8% for remaining activity (MAP2K2 (Homo sapiens, UniProt P36507)).
JAK3 (Homo sapiens, UniProt P52333) — remaining activity: 97.4%.
It gave 82.5% for remaining activity (RPS6KA2 (Homo sapiens, UniProt Q15349)).
It gave 90.1% for remaining activity (CSNK1G3 (Homo sapiens, UniProt Q9Y6M4)).
For TBK1 (Homo sapiens, UniProt Q9UHD2): remaining activity read 94%.
It gave 107% for remaining activity (WEE1 (Homo sapiens, UniProt P30291)).
It gave 100% for remaining activity (MAPK3 (Homo sapiens, UniProt P27361)).
NEK1 (Homo sapiens, UniProt Q96PY6) — remaining activity: 76.5%.
GSK3B (Homo sapiens, UniProt P49841) — remaining activity: 82%.
FGFR3 (Homo sapiens, UniProt P22607) — remaining activity: 86%.
The remaining activity was 94.2% (LCK (Homo sapiens, UniProt P06239)).
MST1R (Homo sapiens, UniProt Q04912) — remaining activity: 88.9%.
For CSNK1G2 (Homo sapiens, UniProt P78368): remaining activity read 99.9%.
For GRK7 (Homo sapiens, UniProt Q8WTQ7): remaining activity read 101%.

For quick reference, copied from above (study 3):
With `CGUU` the 4-mer enrichment was 1.14 fold.
With `CCAA` the 4-mer enrichment was 0.695 fold.
With `CGCG` the 4-mer enrichment was 1.35 fold.
For `AUGC`, the 4-mer enrichment was 0.934 fold.
`ACAU` gave a 4-mer enrichment of 0.734 fold.
